# Assay results of several laboratories.
# Protocols differ between the studies behind these lines. Numbers after ± are the reported error.
# Cell line: HeLa
Compound,assay,system,setting,how to read,quantity,value
CC(C)[C@H](NC(=O)[C@H](CCCNC(=N)N)NC(=O)C[C@@H](N)CCCN)C(=O)N[C@@H](Cc1c[nH]cn1)C(=O)N[C@@H](Cc1ccccc1)C(N)=O,Fluo-4 imaging,,concentration not given,,calcium spiking,inactive
NC(=S)N/N=C/c1cc(Cl)ccc1O,"Western blot, refers to: phospho-ERK1/2",,"0.1 µM, 24 h",,reduction in ERK1/2 phosphorylation,~10%
O=C(O)c1ccccc1-c1c2ccc(=O)cc-2oc2cc(O)ccc12,resazurin,,concentration not given,,viability,no effect
CC(=O)N[C@H](CCCNC(=N)N)C(=O)N[C@H](CCCCN)C(=O)N[C@H](Cc1ccc(O)cc1)C(=O)N[C@H](CS)C(N)=O,,,"concentration not given, 24 h",,decrease in EdU-positive cells,~50%
COc1ccc(-c2cc(COC3c4cc5c(cc4C(c4cc(OC)c(OC)c(OC)c4)C4C(=O)OCC34)OCO5)on2)cc1 (stereo not drawn),Caspase-Glo 3/7,,"20 µg/mL, 24 h",,caspase-3/7 activation,81.3%
CC(C)[C@@H]1NC(=O)[C@H](Cc2ccc(OP(=O)(O)O)cc2)NC(=O)[C@H](CCCNC(=N)N)NC(=O)[C@H](CCCNC(=N)N)NC(=O)[C@@H]2CCCN2C(=O)[C@H]2CCCN2C(=O)[C@@H](CCCNC(=N)N)NC(=O)[C@H](Cc2ccc3ccccc3c2)NC(=O)[C@H](Cc2ccccc2)NC(=O)[C@H](CC(N)=O)NC1=O,flow cytometry,NF-labelled via miniPEG-Lys at Asn,"5 µM, 2 h",baseline: CPP9 cyclo(fΦRrRrQ) as 100%,cytosolic entry efficiency,49%
CCc1ccc(C2=C3C(C)=CC(C)=[N+]3[B-](F)(F)n3c(C)cc(C)c32)cc1,confocal microscopy,,"concentration not given, 1 h, 37 °C, together with: Lipi-Blue 500 nM",,Pearson's correlation coefficient,0.97
CC1=[N+]2N=C(c3ccccc3)[O][Pd-2]2([Cl])[O+]=C2Oc3ccccc3C=C21 (stereo not drawn),flow cytometry,,"IC50, 24 h",,S phase cells,35.4%
O=C(O)c1ccccc1-c1c2ccc(=O)c(Br)c-2oc2c(Br)c(O)ccc12,HPLC-MS/MS,,"50 µM, 24 h",,mRNA m6A level,increased
CC(C)CCOc1cc(C[n+]2cn(CCC(C)C)c3ccccc32)c(OCCC(C)C)c2ccccc12,annexin V/PI flow cytometry,,"5 µM, 24 h",baseline: DMSO,late apoptotic cells increase,6.3%
O=C(/C=C/c1ccccc1)Oc1ccc2c(c1)O/C(=C\C=C\c1ccccc1)C2=O,,,"concentration not given, together with: rapamycin 3 µM 4 h",,autophagosome formation,inhibited
CCCc1c(O)c(O)cc(C(=O)O)c1COC1OC(CO)C(O)C(O)C1O (stereo not drawn),"Wnt/β-catenin signalling, RT-qPCR, refers to: AXIN2 and B9L",,"25 µM, 6 h, together with: LiCl 20 mM",baseline: TBP,mRNA level,no effect
O=c1c(/C=N/NC(=S)N/N=C/c2cc(Cl)ccc2O)coc2ccccc12,DHE flow cytometry,,"1 µM, 24 h",baseline: control,superoxide level,150 to 160%
COc1cc(C(=O)c2[nH]c(N)nc2-c2cccs2)cc(OC)c1OC,"immunofluorescence, refers to: microtubules",,"200 nM, 2 h",,reduction of microtubule intensity,33 ± 8%
Cc1ccc2c(Cl)cc(Cl)c([O-])c2n1.Cc1ccc2c(Cl)cc(Cl)c([O-])c2n1.[Co+2].c1ccc(-c2ccccn2)nc1,,,"4.53 µM, 24 h",,mitochondrial membrane potential,decreased
Cc1cc(/C=C2\CN(C(C)C)C/C(=C\c3cc(C)c(O)c(C)c3)C2=O)cc(C)c1O,PI flow cytometry,,"2.5 µM, 24 h",,G2/M phase cells,18.9 ± 2.9%
COc1ccc(CCC(=O)Nc2nc3ccc(Cl)cc3s2)cc1OC,shotgun lipidomics,,"10 µM, 18 h",,free cholesterol level,no effect
CCOc1cc(N2CCC(O)CC2)ccc1Nc1ncc2c(n1)N(C)c1ccccc1C(=O)N2C,annexin V/PI flow cytometry,,"5 µM, 24 h",baseline: DMSO,late apoptotic cells increase,4.6%
O=C(O)COc1cc2c(OCC(=O)O)cc1Cc1cc(OCC(=O)O)c(cc1OCC(=O)O)Cc1cc(OCC(=O)O)c(cc1OCC(=O)O)Cc1cc(OCC(=O)O)c(cc1OCC(=O)O)Cc1cc(OCC(=O)O)c(cc1OCC(=O)O)Cc1cc(OCC(=O)O)c(cc1OCC(=O)O)C2,CCK-8,,"concentration not given, 24 h",,viability,no effect
CC(C)(C)c1cc2c(O)c(c1)Cc1cc(C(C)(C)C)cc(c1OCC(=O)Nc1cccc3cccnc13)Cc1cc(C(C)(C)C)cc(c1O)Cc1cc(C(C)(C)C)cc(c1OCC(=O)Nc1cccc3cccnc13)COC2,"cell growth or viability, MTT",,"15 µM, 72 h",,inhibition,71%
S=c1n(-c2ccccc2)c2c3ccccc3nc3[n+]2[n]1[Ir-3]12([S]3)([c]3ccc4ccccc4c3-c3sc4ccccc4[n+]31)[c]1ccc3ccccc3c1-c1sc3ccccc3[n+]12,,,,baseline: IC50 dark over IC50 light,phototoxicity index,> 5000
O=C1C[C@@H](c2ccccc2)Oc2c(Cc3ccccc3O)c(O)cc(O)c21,MTT,,"concentration not given, 72 h",,cytotoxicity,inactive
O=[N+]([O-])c1ccc(NC2=N[N+](=Cc3cccs3)[Pd-]([Cl])([Cl])[S]2)cc1,"altered cell morphology, microscopy",,confluent cultures,,minimal cytotoxic concentration,> 100 µM
O=C(Cc1ccc(-c2ccc(OCCN3CCOCC3)cc2)cn1)NCc1ccc(F)cc1,"western blot, refers to: phospho-Src",,"50 nM, 6 h",,protein level,decreased
C=C1C(=O)OC2C=C(C)CCC=C(C(=O)OC(C)C(C)(O)C(=O)OC3C(OC(C)=O)C(C(=O)OC)=CCCC(C)=CC4OC(=O)C(=C)C43)CC(OC(=O)C(C)=CC)C12 (stereo not drawn),PI flow cytometry,,"3 µM, 48 h",,G1 phase cells,40.1%
COc1cc2c(=O)c(-c3ccc4c(c3)OCO4)coc2c2c1OC(C)(C)C=C2,annexin V/PI flow cytometry,,"5 µM, 48 h",,apoptotic cells,36.3%
O=[N+]([O-])c1ccc(C=[N+]2N=C(Nc3ccccc3)[S][Pd-]2([Cl])[Cl])s1,"altered cell morphology, microscopy",,confluent cultures,,minimal cytotoxic concentration,100 µM
CC(C)(C)c1cc2c(O)c(c1)Cc1cc(C(C)(C)C)cc(c1OCC(=O)Nc1ccccn1)Cc1cc(C(C)(C)C)cc(c1O)Cc1cc(C(C)(C)C)cc(c1OCC(=O)Nc1ccccn1)COC2,"cell growth or viability, MTT",,"15 µM, 72 h",,inhibition,28%
COc1cc([C@@H]2c3cc4c(cc3[C@@H](OCc3cc(-c5cc(C#N)cc(C#N)c5)no3)[C@H]3COC(=O)C23)OCO4)cc(OC)c1OC (stereo partly drawn),"cell growth or viability, SRB",,48 h,,GI50,1.28 µM
CNC(=O)c1c(C)oc2cc(Oc3ncnc4cc(OC)c(OCCCCCCC(=O)NO)cc34)ccc12,annexin V/7-AAD flow cytometry,,"0.75 µM, 48 h",,apoptotic cells,7.69%
CC(C)(C)c1cc2c(O)c(c1)Cc1cc(C(C)(C)C)cc(c1OCC(=O)Nc1cncc3ccccc13)Cc1cc(C(C)(C)C)cc(c1O)Cc1cc(C(C)(C)C)cc(c1OCC(=O)Nc1cncc3ccccc13)COC2,"cell growth or viability, MTT",,"15 µM, 72 h",,inhibition,82%
N=C(N)NCCC[C@@H]1NC(=O)[C@H](CCCCN)NC(=O)[C@@H](Cc2ccc(O)cc2)NC(=O)[C@H](CC(=O)O)NC(=O)CNC1=O,MTT,,48 h,,TGI,> 100 µM
O=[N+]([O-])c1ccc(NC(=S)N/N=C/c2cccs2)cc1,"altered cell morphology, microscopy",,confluent cultures,,cytotoxic concentration,20 µM
Cc1ccc2oc(=O)c(-c3nc4cnccc4[nH]3)cc2c1,cell growth or viability,,72 h,,EC50,1.49 µM
S=C(N/N=C/c1ccc(-c2ccccc2)s1)Nc1ccccc1,"altered cell morphology, microscopy",,confluent cultures,,cytotoxic concentration,≥ 20 µM
C[C@H]1O[C@@H]2C3=C(O[C@]2(C)[C@@]1(O)C=O)C(=O)c1c(O)cccc1C3=O,"cell growth or viability, MTT",,48 h,,EC50,7.27 µg/mL

# For quick reference, copied from above:
Compound,assay,system,setting,how to read,quantity,value
O=C(O)COc1cc2c(OCC(=O)O)cc1Cc1cc(OCC(=O)O)c(cc1OCC(=O)O)Cc1cc(OCC(=O)O)c(cc1OCC(=O)O)Cc1cc(OCC(=O)O)c(cc1OCC(=O)O)Cc1cc(OCC(=O)O)c(cc1OCC(=O)O)Cc1cc(OCC(=O)O)c(cc1OCC(=O)O)C2,CCK-8,,"concentration not given, 24 h",,viability,no effect
CC(C)(C)c1cc2c(O)c(c1)Cc1cc(C(C)(C)C)cc(c1OCC(=O)Nc1cccc3cccnc13)Cc1cc(C(C)(C)C)cc(c1O)Cc1cc(C(C)(C)C)cc(c1OCC(=O)Nc1cccc3cccnc13)COC2,"cell growth or viability, MTT",,"15 µM, 72 h",,inhibition,71%
S=c1n(-c2ccccc2)c2c3ccccc3nc3[n+]2[n]1[Ir-3]12([S]3)([c]3ccc4ccccc4c3-c3sc4ccccc4[n+]31)[c]1ccc3ccccc3c1-c1sc3ccccc3[n+]12,,,,baseline: IC50 dark over IC50 light,phototoxicity index,> 5000
